Experimental data pooled from the literature.
Protocols differ between the studies behind these lines. “And” joins repeats or separate records; there may be more than shown. ± gives the spread as reported. Values after ≈ are worked out from the molar mass of the structure shown.
Organism: Staphylococcus aureus

Cc1ccc2nc(C)c(C(=O)C(=O)NCc3ccccc3)n2c1
inhibition zone (microbial growth; SG511; 2 mM, 20 h): 0 mm

CC[C@H](C)[C@H](N)C(=O)N[C@@H](CC(N)=O)C(=O)N[C@H]1CCSC(=O)[C@H](CC(C)C)NC(=O)[C@H](CC(C)C)NC(=O)[C@H](Cc2ccccc2)NC(=O)[C@H](CC(=O)O)NC1=O
EC50 (reporter gene, activator, β-lactamase reporter; agr reporter cells, CA3-III; 80 min): > 10 µM

CC(C)[C@H]1NC(=O)[C@H](Cc2ccccc2)NC(=O)[C@@H](C(C)C)NC(=O)[C@@H](C)NC(=O)[C@H](CO)NC(=O)[C@@H](Cc2c(-c3ccc(-c4cccc5ccccc45)cc3)[nH]c3ccccc23)NC(=O)[C@@H](CO)NC1=O
MIC90 (broth dilution): > 50 µM

CCCNC(=O)[C@@H]1Cc2ccc(cc2)Oc2cc(ccc2O)[C@@H](NC(=O)[C@H](NC(=O)[C@H](CC(N)=O)NC(=O)[C@@H](Cc2ccc(O)cc2)NC(=O)[C@@H](CC(C)C)NC)c2ccccc2)C(=O)N[C@@H](Cc2ccccc2)C(=O)N1
IC50 (bacterial growth): > 40 µM

N=C(N)NCCC[C@H](NC(=O)[C@H](CCCNC(=N)N)NC(=O)[C@H](CCCNC(=N)N)NC(=O)[C@H](CCC(N)=O)NC(=O)[C@H](CCCNC(=N)N)NC(=O)[C@H](CCCNC(=N)N)NC(=O)[C@H](CCCCN)NC(=O)[C@H](CCCCN)NC(=O)[C@H](CCCNC(=N)N)NC(=O)CNC(=O)[C@H](Cc1ccc(O)cc1)NC(=O)[C@H](Cc1ccccc1)NC(=O)[C@H](Cc1ccccc1)NC(=O)[C@H](Cc1ccccc1)NC(=O)OCC1c2ccccc2-c2ccccc21)C(=O)O
IL-1β, IL-6, TNF-α (29213, C57BL/6 mouse peritonitis-sepsis, serum; 10 mg/kg, 48 h; relative to: control): decreased

CC1CCN(C(=O)c2cccc(NC(=O)Nc3ccc([N+](=O)[O-])cc3)c2)CC1
MIC fold reduction (checkerboard; CRB, PBP4 overexpressor; 25 µM, together with: ceftobiprole; relative to: ceftobiprole alone over combination): > 16

CN[C@H](CC(C)C)C(=O)N[C@H]1C(=O)N[C@@H](CC(N)=O)C(=O)N[C@H]2C(=N)N[C@H]3C(=O)N[C@H](C(=O)N[C@H](C(=O)NCCCNC(=N)N)c4cc(O)cc(O)c4-c4cc3ccc4O)[C@H](O)c3ccc(c(Cl)c3)Oc3cc2cc(c3O[C@@H]2O[C@H](CO)[C@@H](O)[C@H](O)[C@H]2O[C@H]2C[C@](C)(NCc3ccc(-c4ccc(Cl)cc4)cc3)[C@H](O)[C@H](C)O2)Oc2ccc(cc2Cl)[C@H]1O
reduction of bacterial count (VRS2 VanA VRSA, mouse neutropenic thigh infection, thigh; subcutaneous, 50 or 100 mg/kg once at 2 h, 26 h): ≥ 2 log10 CFU/g

CC[C@H](C)[C@@H]1NC(=O)[C@@H](CCCNC(=N)N)NC(=O)[C@@H](NC(=O)[C@@H](CC(C)C)NC(=O)[C@H](C)NC(=O)[C@H](C)NC(=O)[C@@H]2CCCN2C(=O)[C@@H](CC(C)C)NC(=O)[C@@H](NC(=O)[C@@H](CCCNC(=N)N)NC(=O)[C@@H](CC(C)C)NC(=O)[C@@H](CC(C)C)NC(=O)[C@@H](NC(=O)[C@@H](CCCNC(=N)N)NC(=O)[C@@H](CC(C)C)NC(=O)[C@@H](NC(=O)[C@@H](NC(=O)CNC(=O)[C@@H](CC(C)C)NC(=O)[C@@H](N)Cc2ccccc2)[C@@H](C)O)C(C)C)C(C)C)C(C)C)CSSC[C@@H](C(=O)O)NC(=O)[C@@H](CCCNC(=N)N)NC(=O)[C@@H](CCCNC(=N)N)NC(=O)[C@H](Cc2ccccc2)NC1=O
survival rate (MRSA NCTC 12493, Galleria mellonella larvae; 32 mg/kg, titanium implant biofilm infection): 75%

CCc1ccn2c(C(=O)N(C)C)c(C)nc2c1
inhibition zone (microbial growth; SG511; 2 mM, 20 h): 0 mm

COc1cc(OC)cc(B(O)O)c1
biofilm formation (crystal violet; USA300 wild type; 10 µM; relative to: wild type untreated): 48.9% and 45.9% and 45.7%

CC(N)C(O)CCCCCCCCCCCCCCC(=O)CCCCCCCC(O)C(C)N (stereo not shown)
growth inhibition (resazurin; ATCC 12600; 50 µM): -6 ± 6.91%

CCCNC(=O)[C@H](Cc1ccc(O)cc1)NC(=O)[C@@H]1Cc2ccc(O)c(c2)-c2cc(ccc2O)C[C@@H](NC(=O)[C@H](CC(N)=O)NC(=O)[C@@H](Cc2ccc(O)cc2)NC(=O)[C@@H](CC(C)C)NC)C(=O)N[C@H](c2ccc(O)cc2)C(=O)N1
IC50 (bacterial growth): > 40 µM

CC[C@H](C)[C@@H]1NC(=O)[C@H](CO)NC(=O)[C@H](CCCCN)NC(=O)[C@@H]2CSSC[C@@H](C(=O)N[C@@H](Cc3ccc(O)cc3)C(N)=O)NC(=O)[C@H](CCCCN)NC(=O)[C@@H]3CSSC[C@H](NC(=O)[C@H](CCCNC(=N)N)NC(=O)[C@H](CC(C)C)NC(=O)[C@H](CC(=O)O)NC(=O)[C@H](CC(=O)O)NC(=O)[C@H](CCC(=O)O)NC(=O)[C@H](CC(N)=O)NC(=O)[C@H](Cc4c[nH]c5ccccc45)NC(=O)[C@@H]4CCCN4C(=O)CNC(=O)[C@H](CC(N)=O)NC(=O)[C@@H](NC(=O)CNC(=O)[C@H](Cc4ccccc4)NC(=O)CN)CSSC[C@H](NC(=O)[C@H](Cc4ccc(O)cc4)NC(=O)CNC(=O)CNC(=O)[C@H](CCCCN)NC(=O)[C@H](Cc4ccc(O)cc4)NC(=O)CNC(=O)[C@H](CCCCN)NC1=O)C(=O)N[C@@H](C)C(=O)N[C@@H](CCCCN)C(=O)NCC(=O)NCC(=O)N[C@@H](Cc1ccccc1)C(=O)N[C@@H](C(C)C)C(=O)N3)C(=O)N[C@@H](Cc1c[nH]cn1)C(=O)N[C@@H](CC(N)=O)C(=O)N[C@@H](Cc1c[nH]cn1)C(=O)N2
MBC (USA300 MRSA; 24 h): 0.5 µM (≈ 2.21 µg/mL)

Repeated from above:
CC[C@H](C)[C@@H]1NC(=O)[C@H](CO)NC(=O)[C@H](CCCCN)NC(=O)[C@@H]2CSSC[C@@H](C(=O)N[C@@H](Cc3ccc(O)cc3)C(N)=O)NC(=O)[C@H](CCCCN)NC(=O)[C@@H]3CSSC[C@H](NC(=O)[C@H](CCCNC(=N)N)NC(=O)[C@H](CC(C)C)NC(=O)[C@H](CC(=O)O)NC(=O)[C@H](CC(=O)O)NC(=O)[C@H](CCC(=O)O)NC(=O)[C@H](CC(N)=O)NC(=O)[C@H](Cc4c[nH]c5ccccc45)NC(=O)[C@@H]4CCCN4C(=O)CNC(=O)[C@H](CC(N)=O)NC(=O)[C@@H](NC(=O)CNC(=O)[C@H](Cc4ccccc4)NC(=O)CN)CSSC[C@H](NC(=O)[C@H](Cc4ccc(O)cc4)NC(=O)CNC(=O)CNC(=O)[C@H](CCCCN)NC(=O)[C@H](Cc4ccc(O)cc4)NC(=O)CNC(=O)[C@H](CCCCN)NC1=O)C(=O)N[C@@H](C)C(=O)N[C@@H](CCCCN)C(=O)NCC(=O)NCC(=O)N[C@@H](Cc1ccccc1)C(=O)N[C@@H](C(C)C)C(=O)N3)C(=O)N[C@@H](Cc1c[nH]cn1)C(=O)N[C@@H](CC(N)=O)C(=O)N[C@@H](Cc1c[nH]cn1)C(=O)N2
MBC (USA300 MRSA; 24 h): 0.5 µM (≈ 2.21 µg/mL)

CC[C@H](C)[C@H](N)C(=O)N[C@@H](CC(N)=O)C(=O)N[C@H]1CCSC(=O)[C@H](CC(C)C)NC(=O)[C@H](CC(C)C)NC(=O)[C@H](Cc2ccccc2)NC(=O)[C@H](CC(=O)O)NC1=O
EC50 (reporter gene, activator, β-lactamase reporter; agr reporter cells, CA3-III; 80 min): > 10 µM
